Experimental data of several laboratories.
Each numbered part is a random draw from the data of one study; scales do not carry over between parts. Changes are numbered by the printed parent chain.

Block 1 — target: CCND1, cyclin fold, Cln2 fusion (human); method: yeast growth competition, sequencing; sample: yeast; setting: weak parent motif; baseline: not given; direction: higher = stronger binding
Starting sequence: GMNC docking peptide (human); KNAKRNLSSEFAN
| Change | normalised enrichment score |
| --- | --- |
| KNAKRNLSSECAN [F11C] | 0.12 |
| KNAKRNLSYEFAN [S9Y] | 0.729 |
| KNAKRNWSSEFAN [L7W] | -0.142 |
| KNAKRNLQSEFAN [S8Q] | 0.893 |
| KNAKRNLSSEFRN [A12R] | 0.257 |
| KNAKRNLPSEFAN [S8P] | 0.0788 |
| KNAKRNLYSEFAN [S8Y] | 0.386 |
| KNAKRNLSSWFAN [E10W] | 0.977 |

Block 2 — method: RNA Bind-n-Seq; molecule type: RNA; sample: in vitro; concentration: 1 µM; setting: whole 134-nt RNA, ends assumed; with: 150 mM KCl; baseline: input library; direction: higher = stronger binding
Target: Ras GTPase-activating protein-binding protein 1, C-terminal RGG region (G3BP1, Homo sapiens, UniProt Q13283)
Chain of UniProt Q13283 (whole entry, looked up): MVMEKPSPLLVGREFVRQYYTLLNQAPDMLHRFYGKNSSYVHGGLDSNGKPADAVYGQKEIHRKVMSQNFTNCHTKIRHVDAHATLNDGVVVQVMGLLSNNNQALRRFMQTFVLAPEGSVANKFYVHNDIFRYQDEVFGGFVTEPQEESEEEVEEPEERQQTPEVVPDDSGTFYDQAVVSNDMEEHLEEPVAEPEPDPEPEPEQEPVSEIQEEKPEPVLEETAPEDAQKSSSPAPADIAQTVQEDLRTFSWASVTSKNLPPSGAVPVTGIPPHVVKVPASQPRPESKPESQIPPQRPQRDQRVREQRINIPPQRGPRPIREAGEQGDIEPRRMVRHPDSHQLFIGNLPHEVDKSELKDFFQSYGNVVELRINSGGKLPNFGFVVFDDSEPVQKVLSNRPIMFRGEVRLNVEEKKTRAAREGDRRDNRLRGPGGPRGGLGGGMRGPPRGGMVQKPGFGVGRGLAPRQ
Constant ends, left off below: GGGAGUUCUACAGUCCGACGAUC … UGGAAUUCUCGGGUGUCAAGG
| Strand | log2 enrichment |
| --- | --- |
| UAACUUUAGAGUAGGAUCUGAUGGAUAUGGCAGUGGACGUGGAUUUGGGGAUGGCUAUAAUGGGUAUGGAGGAGGACCUGGAGGUGGCAA | -1.54 |
| GGGGGUGACCGCCGGAGCGCGGCGUGAGCCCUCCCCCUUGGGAUCCCGCAGCUGACCAGUCGCGCUGACGGACAGACAGACAGACACCGC | -2.04 |
| CAAAGACAACACGCACCCACACAGACACAGAGGGAAGGGGUUGGGAUGGGGACAGGGUGCACAGCAGGGCGGGGUAGGACCCCAGCCCCU | -0.441 |
| AGUCCUGUGCUACACAUCGUAUGUACCGAAUCGGGGCCCCGGGGCCCCGGGGCCCCGGAAAGUAUUAUGUUACGCCGUUCGGAUCUGCAC | -2.03 |
| GUCCUGUGCUACACAUCGUAUGUACCGAAUCGGUUUUUGGGUUUUUGGGGUUUUUGGGAAAGUAUUAUGUUACGCCGUUCGGAUCUGCAC | -0.747 |
| CCUGUGCUACACAUCGUAUGUACCGAAUCGGUUUUUUUGGGUUUUUUUGGUUUUUUUGGGAAAGUAUUAUGUUACGCCGUUCGGAUCUGC | -1.57 |
| CACAGACAACACGCACCCACACAGACACAGAGGGAAGGGGUUGGGAUGGGGACAGGGUGCACAGCAGGGCGGGGUAGGACCCCAGCAAAU | -0.461 |
| CAAGUCCUGUGCUACACAUCGUAUGUACCGAAUCGGGAAAGGGUUUGGGUUUGGGAAAGUAUUAUGUUACGCCGUUCGGAUCUGCACUUC | 2.01 |

Block 3 — method: RNAcompete; molecule type: RNA; sample: in vitro; concentration: 20 nM; setting: 7-mer, probes averaged, single round; baseline: mean of 7-mers; direction: higher = stronger binding
Target: PABPC1L2, full length, GST fusion (mouse, UniProt A0ABA7IW68)
Target sequence (chain): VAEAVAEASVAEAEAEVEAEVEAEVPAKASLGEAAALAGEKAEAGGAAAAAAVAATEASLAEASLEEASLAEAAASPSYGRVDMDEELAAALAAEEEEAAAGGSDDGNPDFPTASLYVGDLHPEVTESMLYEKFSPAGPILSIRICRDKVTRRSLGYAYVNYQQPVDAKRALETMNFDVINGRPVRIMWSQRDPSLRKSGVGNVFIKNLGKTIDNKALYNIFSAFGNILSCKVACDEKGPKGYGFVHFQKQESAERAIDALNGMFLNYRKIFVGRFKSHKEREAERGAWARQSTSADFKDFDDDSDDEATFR
| Strand | 7-mer Z-score |
| --- | --- |
| UGCGACG | 0.104 |
| UCGUGUG | -0.28 |
| AGCGCCC | -0.219 |
| CCAGGAU | -0.182 |
| GAGUGAC | -0.0047 |
| GCGAUGG | 0.193 |
| CGUCAUG | -0.333 |
| UUACUGU | -0.246 |

Mixed results
Starting sequence: PafA, mature enzyme, eGFP fusion (Elizabethkingia meningoseptica, UniProt Q9KJX5); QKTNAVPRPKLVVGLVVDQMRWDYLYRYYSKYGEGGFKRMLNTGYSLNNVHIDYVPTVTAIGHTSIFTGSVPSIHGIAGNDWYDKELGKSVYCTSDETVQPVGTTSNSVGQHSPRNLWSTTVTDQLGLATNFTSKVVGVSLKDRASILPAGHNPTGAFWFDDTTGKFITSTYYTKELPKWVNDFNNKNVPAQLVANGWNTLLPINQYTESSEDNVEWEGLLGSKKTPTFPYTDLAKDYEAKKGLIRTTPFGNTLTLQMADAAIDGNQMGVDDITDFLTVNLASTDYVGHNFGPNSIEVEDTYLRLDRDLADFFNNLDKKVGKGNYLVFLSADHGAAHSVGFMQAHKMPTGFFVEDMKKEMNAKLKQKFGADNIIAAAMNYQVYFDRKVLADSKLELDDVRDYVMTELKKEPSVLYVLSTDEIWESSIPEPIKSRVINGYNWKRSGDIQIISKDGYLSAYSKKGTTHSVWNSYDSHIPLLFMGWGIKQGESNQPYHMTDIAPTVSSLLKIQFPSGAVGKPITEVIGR
| Change | target | assay | system | conditions | how to read | endpoint | result |
| --- | --- | --- | --- | --- | --- | --- | --- |
| K242G | tungstate, free oxyanion | microfluidic competitive inhibition | in vitro, cell-free expressed | not given, derived from inhibition constants, unchanged parent 2230 nM | lower = stronger binding | oxyanion analog dissociation constant | 1.54 µM |

For quick reference, copied from above (block 2):
| Strand | log2 enrichment |
| --- | --- |
| UAACUUUAGAGUAGGAUCUGAUGGAUAUGGCAGUGGACGUGGAUUUGGGGAUGGCUAUAAUGGGUAUGGAGGAGGACCUGGAGGUGGCAA | -1.54 |
